Experimental data gathered from unrelated publications.
Parts stem from different laboratories: compare values within a part only. “And” joins repeats or separate records; there may be more than shown.
Sequence of UniProt P50750 (whole entry, looked up): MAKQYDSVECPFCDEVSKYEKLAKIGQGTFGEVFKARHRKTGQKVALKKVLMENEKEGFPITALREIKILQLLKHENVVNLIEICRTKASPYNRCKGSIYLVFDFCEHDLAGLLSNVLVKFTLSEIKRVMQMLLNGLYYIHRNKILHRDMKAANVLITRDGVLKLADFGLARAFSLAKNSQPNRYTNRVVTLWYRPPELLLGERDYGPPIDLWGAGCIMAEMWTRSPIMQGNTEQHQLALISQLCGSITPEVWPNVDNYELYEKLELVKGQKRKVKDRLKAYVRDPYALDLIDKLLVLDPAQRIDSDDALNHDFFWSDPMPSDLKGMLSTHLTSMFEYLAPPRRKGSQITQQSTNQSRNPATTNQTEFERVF
Sequence of UniProt Q13464 (whole entry, looked up): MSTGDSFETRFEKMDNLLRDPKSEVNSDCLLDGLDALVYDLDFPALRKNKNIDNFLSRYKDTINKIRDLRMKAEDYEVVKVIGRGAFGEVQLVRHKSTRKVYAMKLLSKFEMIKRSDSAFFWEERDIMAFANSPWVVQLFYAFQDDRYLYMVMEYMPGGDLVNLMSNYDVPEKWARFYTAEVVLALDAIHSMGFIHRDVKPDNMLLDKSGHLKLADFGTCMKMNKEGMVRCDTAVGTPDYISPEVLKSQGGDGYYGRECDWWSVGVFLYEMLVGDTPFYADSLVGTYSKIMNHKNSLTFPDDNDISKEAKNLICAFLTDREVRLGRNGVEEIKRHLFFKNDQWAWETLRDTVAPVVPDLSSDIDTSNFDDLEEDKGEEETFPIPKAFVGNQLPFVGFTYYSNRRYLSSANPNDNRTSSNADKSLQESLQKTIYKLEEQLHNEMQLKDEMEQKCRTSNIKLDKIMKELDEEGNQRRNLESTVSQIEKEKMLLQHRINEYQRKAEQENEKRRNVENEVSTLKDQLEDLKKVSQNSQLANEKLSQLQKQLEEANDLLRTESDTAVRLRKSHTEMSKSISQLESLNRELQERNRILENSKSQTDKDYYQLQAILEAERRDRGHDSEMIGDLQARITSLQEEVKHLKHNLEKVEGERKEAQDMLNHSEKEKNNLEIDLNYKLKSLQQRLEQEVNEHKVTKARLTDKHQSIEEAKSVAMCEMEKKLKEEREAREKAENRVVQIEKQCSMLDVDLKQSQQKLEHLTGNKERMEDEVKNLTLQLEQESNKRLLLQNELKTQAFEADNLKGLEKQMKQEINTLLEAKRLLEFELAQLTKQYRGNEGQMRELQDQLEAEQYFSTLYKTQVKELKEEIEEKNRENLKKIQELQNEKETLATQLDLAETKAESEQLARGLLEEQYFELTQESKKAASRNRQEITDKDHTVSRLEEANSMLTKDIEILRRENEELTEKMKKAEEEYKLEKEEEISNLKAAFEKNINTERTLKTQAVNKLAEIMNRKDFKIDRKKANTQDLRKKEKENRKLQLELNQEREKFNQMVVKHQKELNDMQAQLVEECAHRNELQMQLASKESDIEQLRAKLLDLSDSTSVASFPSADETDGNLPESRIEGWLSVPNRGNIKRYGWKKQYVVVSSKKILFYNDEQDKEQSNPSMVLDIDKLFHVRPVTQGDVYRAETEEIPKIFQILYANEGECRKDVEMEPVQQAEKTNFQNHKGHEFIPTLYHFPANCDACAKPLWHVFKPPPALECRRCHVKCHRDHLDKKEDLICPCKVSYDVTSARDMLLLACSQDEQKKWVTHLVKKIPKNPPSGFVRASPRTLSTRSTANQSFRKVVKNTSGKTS
Sequence of UniProt P42681 (whole entry, looked up): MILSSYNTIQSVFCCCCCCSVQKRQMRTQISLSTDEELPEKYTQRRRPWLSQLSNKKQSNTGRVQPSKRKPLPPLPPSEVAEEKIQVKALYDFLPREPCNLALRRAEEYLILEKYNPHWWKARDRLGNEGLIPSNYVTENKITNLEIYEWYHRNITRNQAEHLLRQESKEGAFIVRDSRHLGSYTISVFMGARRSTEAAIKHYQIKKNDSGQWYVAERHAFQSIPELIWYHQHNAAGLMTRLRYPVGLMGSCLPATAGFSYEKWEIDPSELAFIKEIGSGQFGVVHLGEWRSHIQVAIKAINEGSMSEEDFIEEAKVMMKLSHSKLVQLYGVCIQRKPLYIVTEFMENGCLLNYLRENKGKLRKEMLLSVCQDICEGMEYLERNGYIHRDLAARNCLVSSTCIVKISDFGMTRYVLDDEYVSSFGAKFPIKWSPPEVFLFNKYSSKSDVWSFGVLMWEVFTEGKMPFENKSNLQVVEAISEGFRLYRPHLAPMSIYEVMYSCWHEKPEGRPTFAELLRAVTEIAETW
Sequence of UniProt Q05655 (whole entry, looked up): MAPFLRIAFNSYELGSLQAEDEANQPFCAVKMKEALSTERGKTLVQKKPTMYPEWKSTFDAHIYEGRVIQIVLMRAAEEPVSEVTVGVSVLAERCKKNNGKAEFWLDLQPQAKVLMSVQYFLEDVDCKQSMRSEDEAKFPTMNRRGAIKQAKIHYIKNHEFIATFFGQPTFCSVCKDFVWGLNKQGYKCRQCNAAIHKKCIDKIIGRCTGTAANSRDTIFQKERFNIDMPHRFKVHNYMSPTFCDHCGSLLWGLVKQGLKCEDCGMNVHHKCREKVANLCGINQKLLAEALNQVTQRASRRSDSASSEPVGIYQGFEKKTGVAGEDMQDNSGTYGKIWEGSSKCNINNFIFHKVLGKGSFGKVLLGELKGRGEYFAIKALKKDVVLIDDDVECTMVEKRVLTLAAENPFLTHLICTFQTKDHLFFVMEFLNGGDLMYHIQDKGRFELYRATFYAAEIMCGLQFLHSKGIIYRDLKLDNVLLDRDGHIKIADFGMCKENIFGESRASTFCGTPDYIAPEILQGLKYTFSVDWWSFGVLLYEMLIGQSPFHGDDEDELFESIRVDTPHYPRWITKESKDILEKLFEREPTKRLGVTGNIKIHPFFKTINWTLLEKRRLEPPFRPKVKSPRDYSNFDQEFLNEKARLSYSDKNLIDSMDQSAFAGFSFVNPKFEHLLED
Sequence of UniProt O00329 (whole entry, looked up): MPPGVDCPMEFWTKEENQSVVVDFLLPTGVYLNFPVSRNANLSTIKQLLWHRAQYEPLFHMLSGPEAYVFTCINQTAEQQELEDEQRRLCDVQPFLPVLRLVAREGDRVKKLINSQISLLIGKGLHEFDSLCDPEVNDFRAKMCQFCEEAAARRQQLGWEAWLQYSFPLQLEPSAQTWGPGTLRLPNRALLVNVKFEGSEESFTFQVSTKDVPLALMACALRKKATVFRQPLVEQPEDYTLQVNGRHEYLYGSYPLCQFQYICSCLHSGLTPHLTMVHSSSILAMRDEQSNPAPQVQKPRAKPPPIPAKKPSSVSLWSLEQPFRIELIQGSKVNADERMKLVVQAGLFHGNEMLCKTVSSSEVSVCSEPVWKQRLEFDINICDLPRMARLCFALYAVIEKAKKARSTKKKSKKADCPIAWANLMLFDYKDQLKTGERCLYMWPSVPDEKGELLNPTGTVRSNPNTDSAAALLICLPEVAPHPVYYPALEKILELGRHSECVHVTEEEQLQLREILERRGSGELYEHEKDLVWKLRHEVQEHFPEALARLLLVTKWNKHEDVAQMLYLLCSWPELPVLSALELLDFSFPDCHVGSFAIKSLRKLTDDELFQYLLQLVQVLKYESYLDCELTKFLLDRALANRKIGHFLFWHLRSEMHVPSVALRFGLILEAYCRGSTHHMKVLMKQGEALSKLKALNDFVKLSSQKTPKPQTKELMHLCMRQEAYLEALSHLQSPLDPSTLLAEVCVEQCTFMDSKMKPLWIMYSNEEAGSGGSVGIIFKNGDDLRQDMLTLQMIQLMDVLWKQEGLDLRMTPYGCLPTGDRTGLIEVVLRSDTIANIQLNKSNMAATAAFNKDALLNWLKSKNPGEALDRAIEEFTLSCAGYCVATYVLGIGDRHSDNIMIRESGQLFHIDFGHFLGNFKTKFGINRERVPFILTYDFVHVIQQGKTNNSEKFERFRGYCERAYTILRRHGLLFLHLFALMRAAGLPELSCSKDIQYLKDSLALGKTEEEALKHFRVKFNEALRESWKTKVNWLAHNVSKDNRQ
Sequence of UniProt Q16566 (whole entry, looked up): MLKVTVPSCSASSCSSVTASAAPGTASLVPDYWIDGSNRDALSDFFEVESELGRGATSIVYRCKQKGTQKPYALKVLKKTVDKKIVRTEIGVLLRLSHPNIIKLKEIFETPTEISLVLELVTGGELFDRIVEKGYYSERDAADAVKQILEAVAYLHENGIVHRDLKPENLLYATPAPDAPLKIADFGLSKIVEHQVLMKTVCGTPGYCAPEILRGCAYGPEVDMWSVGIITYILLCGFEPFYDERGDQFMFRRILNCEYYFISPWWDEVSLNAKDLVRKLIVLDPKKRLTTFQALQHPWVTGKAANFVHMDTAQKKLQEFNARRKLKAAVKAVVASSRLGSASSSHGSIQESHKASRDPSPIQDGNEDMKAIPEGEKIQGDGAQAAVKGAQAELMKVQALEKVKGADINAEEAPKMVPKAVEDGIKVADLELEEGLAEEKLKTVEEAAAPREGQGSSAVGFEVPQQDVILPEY
Sequence of UniProt P31751 (whole entry, looked up): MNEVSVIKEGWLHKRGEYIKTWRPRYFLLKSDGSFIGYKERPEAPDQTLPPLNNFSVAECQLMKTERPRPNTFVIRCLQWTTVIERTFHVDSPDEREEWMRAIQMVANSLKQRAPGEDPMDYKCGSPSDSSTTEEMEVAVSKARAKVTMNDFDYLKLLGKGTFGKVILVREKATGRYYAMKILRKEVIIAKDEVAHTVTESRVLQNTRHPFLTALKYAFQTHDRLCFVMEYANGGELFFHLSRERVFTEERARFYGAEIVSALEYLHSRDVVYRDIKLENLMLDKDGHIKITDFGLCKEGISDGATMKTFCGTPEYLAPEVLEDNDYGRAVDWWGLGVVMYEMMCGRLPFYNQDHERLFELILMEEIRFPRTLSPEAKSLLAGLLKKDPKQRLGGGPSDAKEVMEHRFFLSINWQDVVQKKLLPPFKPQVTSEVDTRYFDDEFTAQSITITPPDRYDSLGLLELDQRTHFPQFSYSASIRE

Sample 1
Compound: Cc1c(NC(=O)c2cc(C(N)=O)nc3cc(F)ccc23)c(C(F)(F)F)nn1Cc1ccc(C(C)(C)C)cc1
Effect on: cell-free assay
Technique: competition with immobilised ligand
Concentration: 1 µM
NLK (Homo sapiens, UniProt Q9UBE8) — remaining binding: 100%.
For PIK3CD (Homo sapiens, UniProt O00329): remaining binding read 100%.
It gave 100% for remaining binding (Tyrosine-protein kinase ABL1, phosphorylated (ABL1, Homo sapiens, UniProt P00519, M351T)).
It gave 88% for remaining binding (BMX (Homo sapiens, UniProt P51813)).
For PRKCD (Homo sapiens, UniProt Q05655): remaining binding read 100%.
The remaining binding was 98% (KIT (Homo sapiens, UniProt P10721, V559D/V654A)).
PRKG1 (Homo sapiens, UniProt Q13976) — remaining binding: 99%.
For TAOK1 (Homo sapiens, UniProt Q7L7X3): remaining binding read 100%.

Sample 2
Structure (SMILES): O=Nc1c(-c2c(O)[nH]c3cc(Br)ccc23)[nH]c2ccccc12
Effect on: enzyme activity
Action: inhibitor
Concentration: 0.5 µM
Baseline: control
TXK (Homo sapiens, UniProt P42681) — remaining activity: 27.7%.
The remaining activity was 37.5% (Cyclin-dependent kinase 9, with cyclin K (CDK9, Homo sapiens, UniProt P50750)).
It gave 99% for remaining activity (ROCK1 (Homo sapiens, UniProt Q13464)).
The remaining activity was 101% (AKT2 (Homo sapiens, UniProt P31751)).
The remaining activity was 61.8% (MARK2 (Homo sapiens, UniProt Q7KZI7)).
For PAK3 (Homo sapiens, UniProt O75914): remaining activity read 99.7%.
It gave 99.1% for remaining activity (DCLK2 (Homo sapiens, UniProt Q8N568)).
GRK4 (Homo sapiens, UniProt P32298) — remaining activity: 90.1%.
For DDR2 (Homo sapiens, UniProt Q16832): remaining activity read 69.7%.
For KDR (Homo sapiens, UniProt P35968): remaining activity read 64.2%.
MINK1 (Homo sapiens, UniProt Q8N4C8) — remaining activity: 47.8%.
The remaining activity was 97.5% (CDC42BPB (Homo sapiens, UniProt Q9Y5S2)).
The remaining activity was 96.3% (CAMK4 (Homo sapiens, UniProt Q16566)).

Sample 3
Cell line: mouse MPNST tumor cells
Technique: high-content nuclear imaging
Refers to: cell number
Concentration: 10 µM
Time: 12 h
Setting: mean of 2 replicates
Baseline: plate mean
Direction: higher = more cells
With `CN[C@@H]1[C@@H](O)[C@@H](O[C@@H]2[C@@H](O)[C@H](O[C@H]3OC(CN)=CC[C@H]3N)[C@@H](N)C[C@H]2N)OC[C@]1(C)O` the nuclei count was -0.0554 z-score.
With `Clc1ccc(COC(Cn2ccnc2)c2ccc(Cl)cc2Cl)c(Cl)c1` (stereo not shown) the nuclei count was 3.22 z-score and 2.04 z-score.
The nuclei count of `CCOC(=O)N1c2ccc(C(F)(F)F)cc2[C@@H](N(Cc2cc(C(F)(F)F)cc(C(F)(F)F)c2)C(=O)OC)C[C@H]1CC` is reported as 4.23 z-score.
With `Oc1c(Cl)cc(Cl)c(Cl)c1Cc1c(O)c(Cl)cc(Cl)c1Cl` the nuclei count was 3.58 z-score.
For `CNCC(O)c1ccc(O)c(O)c1` (stereo not shown), the nuclei count was 1.61 z-score.
`CC1(C)O[C@@H]2C[C@H]3[C@@H]4C[C@H](F)C5=CC(=O)C=C[C@]5(C)[C@H]4[C@@H](O)C[C@]3(C)[C@]2(C(=O)CO)O1` gave a nuclei count of 3.23 z-score.
The nuclei count of `N#CC(=Cc1cn(-c2ccccc2)c2ccccc12)C(=O)O` is reported as 0.257 z-score.
`Cc1[nH]c(=O)c(C#N)cc1-c1ccncc1` gave a nuclei count of 2.21 z-score and 1.37 z-score.
`CCN(CC)C(C)CN1c2ccccc2Sc2ccccc21` (stereo not shown) gave a nuclei count of 1.61 z-score.
The nuclei count of `Nc1cccc(CNC(=O)c2ccc(Oc3ccc(OCc4cccc(F)c4)cc3)nc2)c1` is reported as 2.52 z-score.

Sample 4
Target: Bromodomain-containing protein 4, BD1 (BRD4, Homo sapiens, UniProt O60885)
Effect on: acetyl-histone H4 peptide binding
Technique: AlphaScreen displacement
Concentration: 50 µM
The inhibition of `O=C(CSc1ccc2nnc(-c3cccc(F)c3)n2n1)N1CCOCC1` is reported as 10.2%.
For `COc1cccc(C(=O)c2sc(Nc3ccc(F)c(Cl)c3)nc2N)c1`, the inhibition was 2.8%.
`Clc1cccc(Nc2cncc(-c3cccnc3)c2)c1` gave an inhibition of 6.85%.

A few entries again (sample 3):
`CCN(CC)C(C)CN1c2ccccc2Sc2ccccc21` (stereo not shown) gave a nuclei count of 1.61 z-score.
With `Clc1ccc(COC(Cn2ccnc2)c2ccc(Cl)cc2Cl)c(Cl)c1` (stereo not shown) the nuclei count was 3.22 z-score and 2.04 z-score.
With `Oc1c(Cl)cc(Cl)c(Cl)c1Cc1c(O)c(Cl)cc(Cl)c1Cl` the nuclei count was 3.58 z-score.
